Assay results pooled from the literature.
Read-out: cell growth or viability

Structure (SMILES) = CC(=NNC(=O)c1ccccc1O)c1ccc(Nc2nnc(-c3ccc(Cl)cc3)c3ccccc23)cc1; cell line = HepG2; method = MTT; concentration = 0.312 µM; time = 24 h; viability = 98.2%
Structure (SMILES) = C=CCOc1ccc2c(C)c(CC)c(=O)oc2c1C; cell line = MDA-MB-231; method = MTT; concentration = 125 µg/mL; viability = 66%
Structure (SMILES) = O=C(Nc1ccc(Oc2nnc(-c3ccc(Cl)cc3)c3ccccc23)cc1)c1ccccc1; cell line = HepG2; method = MTT; concentration = 5 µM; time = 24 h; viability = 2.97%
Structure (SMILES) = COc1ccc(NC(=O)c2c(Nc3ccccc3)sc(C(=O)NN=Cc3ccc(OC)c(O)c3)c2NC(C)=O)cc1; cell line = HCT-116; method = SRB; concentration = 0.1 µM; time = 48 h; viability = 61.4%
Structure (SMILES) = Cc1ccc(C(CS(=O)(=O)c2ccccc2)=NNc2nc(C)c(N=Nc3cccc(C)c3)s2)cc1; cell line = SK-MEL-23; method = MTT; concentration = 100 µM; time = 48 h; viability = 37%
Structure (SMILES) = CC(=NNC(=S)Nc1ccccc1)c1ccc(Nc2nnc(-c3ccc(Cl)cc3)c3ccccc23)cc1; cell line = HepG2; method = MTT; concentration = 0.312 µM; time = 24 h; viability = 99.1%
Structure (SMILES) = COc1ccc(NC(=O)c2c(Nc3ccccc3)sc(C#N)c2NC(=O)CNc2ccccc2)cc1; cell line = HCT-116; method = SRB; concentration = 1 µM; time = 48 h; viability = 91.1%
Structure (SMILES) = Cc1ccc(C(CS(=O)(=O)c2ccccc2)=NN=C2N=C(c3ccc(Br)cc3)CS2)cc1; cell line = SK-MEL-23; method = MTT; concentration = 0.4 µM; time = 48 h; viability = 83.6%
Structure (SMILES) = COc1ccc(NC(=O)c2c(Nc3ccccc3)sc(C#N)c2NC(=O)CNc2ccc(C)cc2)cc1; cell line = HCT-116; method = SRB; concentration = 1 nM; time = 48 h; viability = 100%
Structure (SMILES) = CCc1c(C)c2ccc(OCC(=O)NN=Cc3ccc([N+](=O)[O-])cc3)cc2oc1=O; cell line = MDA-MB-231; method = MTT; concentration = 62.5 µg/mL; viability = 32.9%
Structure (SMILES) = CC(=O)Nc1cccc(-n2c(=O)n(C3CC3)c(=O)c3c(Nc4ccc(I)cc4F)n(C)c(=O)c(C)c32)c1; cell line = SW1417; method = resazurin; concentration = 0.1 µM; time = 72 h; viability = 51.1%
Structure (SMILES) = COc1ccc(NC(=O)Nc2cccc(-c3cn(Cc4ccc(Cl)cc4)nn3)c2)cc1; cell line = Huh-7; method = CCK-8; concentration = 50 µM; time = 72 h; viability = 10.7%
Structure (SMILES) = COc1ccc(NC(=O)c2c(Nc3ccccc3)sc(C(=O)NN=Cc3ccc(Br)cc3)c2NC(C)=O)cc1; cell line = HCT-116; method = SRB; concentration = 100 µM; time = 48 h; viability = 47.3%
Structure (SMILES) = Cc1c(Cc2ccccc2)c(=O)oc2c(C)c(OCC(=O)NN=Cc3ccc(Cl)cc3)ccc12; cell line = MDA-MB-231; method = MTT; concentration = 500 µg/mL; viability = 19.4%
Structure (SMILES) = CC(=NNC(=O)c1ccccc1Cl)c1ccc(Nc2nnc(-c3ccc(Cl)cc3)c3ccccc23)cc1; cell line = HepG2; method = MTT; concentration = 0.312 µM; time = 24 h; viability = 80.2%
Structure (SMILES) = O=C(Nc1ccc(Oc2nc3ccccc3n3cnnc23)cc1)Nc1cccc(Cl)c1; cell line = MDA-MB-231; method = MTT; concentration = 1.56 µM; time = 24 h; viability = 100%
Structure (SMILES) = CCCOc1ccc2c(C)c(CC)c(=O)oc2c1C; cell line = MDA-MB-231; method = MTT; concentration = 1000 µg/mL; viability = 2.9%
Structure (SMILES) = CC(=NNC(=O)c1ccc(N)cc1)c1ccc(Nc2nnc(-c3ccc(Cl)cc3)c3ccccc23)cc1; cell line = HepG2; method = MTT; concentration = 10 µM; time = 24 h; viability = 8.37%
Structure (SMILES) = COc1ccc(NC(=O)c2c(Nc3ccccc3)sc(C#N)c2NC(=O)CNc2ccc(O)cc2)cc1; cell line = HCT-116; method = SRB; concentration = 1 nM; time = 48 h; viability = 101%
Structure (SMILES) = CC(=NNC(=O)c1ccccc1)c1ccc(Nc2nnc(-c3ccc(Cl)cc3)c3ccccc23)cc1; cell line = HepG2; method = MTT; concentration = 1.25 µM; time = 24 h; viability = 13.4%
Structure (SMILES) = CNC(=O)c1cc(Oc2ccc(NC(=O)Nc3ccc(Cl)c(C(F)(F)F)c3)cc2)ccn1; cell line = HCT-116; method = SRB; concentration = 0.1 µM; time = 48 h; viability = 72.8%

Some of these lines once more:
Structure (SMILES) = Cc1ccc(C(CS(=O)(=O)c2ccccc2)=NN=C2N=C(c3ccc(Br)cc3)CS2)cc1; cell line = SK-MEL-23; method = MTT; concentration = 0.4 µM; time = 48 h; viability = 83.6%
